Results of several laboratories.
Each line is one published result; not all experiments were run side by side.

| SMILES | cell line | effect on | method | time | reference | selectivity ratio |
| --- | --- | --- | --- | --- | --- | --- |
| CS(=O)(=O)c1sc(NC(=O)Nc2ccc(Cl)cc2)c2c1C=CCC2 | NUPR1 wild-type PDAC cells | cell viability |  |  | wild-type over NUPR1 knock-out | 2 to 3 |
| Cc1cnc2c(ccc3c(C)c(C)cnc32)c1C.O=C([O-])Cc1ccccc1Nc1c(Cl)cccc1Cl.O=C([O-])Cc1ccccc1Nc1c(Cl)cccc1Cl.[Cu+2] | HMLER |  | MTT |  | HMLER over HMLER-shEcad | 9 fold |
| N=C(N/N=C/c1cc2ccccc2[nH]1)N/N=C/c1cc2ccccc2[nH]1 | PANC-1 |  | crystal violet | 72 h | IC50 IMR-90 over IC50 PANC-1 | 0.8 |
| Cc1cnc(Nc2cc(C)c(C)c(C)c2)nc1Nc1ccc2oc(=O)[nH]c2c1 | human CD3+ T and CD56+ NK cells | IL-12-induced STAT4 phosphorylation |  |  | IC50 non-JAK1 over JAK1 pathways | 23.5 fold |
| [Cl][Au]1[P](c2ccccc2)(c2ccccc2)C[P](c2ccccc2)(c2ccccc2)[Au]([Cl])[P](c2ccccc2)(c2ccccc2)C[P]1(c1ccccc1)c1ccccc1 | L929 and HCT-116 |  | trypan blue exclusion |  | IC50 L929 over IC50 HCT-116 | 1.3 |
| CCC(C(=O)O)C1CCC(C)C(C(C)C(O)C(C)C(=O)C(CC)C2OC3(C=CC(NCc4cn(CCOCCOCCOC)nn4)C4(CCC(C)(C5CCC(O)(CC)C(C)O5)O4)O3)C(C)CC2C)O1 (centres unmarked) | HMLER | cell proliferation |  |  | IC50 CD24high/CD44low over IC50 CD24low/CD44high | 2.3 |
| N=C(N/N=C/c1cncnc1)N/N=C/c1cncnc1 | PANC-1 |  | crystal violet | 72 h | IC50 hTERT-HPNE over IC50 PANC-1 | 3.5 |
| CCC(C(=O)O)C1CCC(C)C(C(C)C(O)C(C)C(=O)C(CC)C2OC3(C=CC(NCc4cn(CCCO)nn4)C4(CCC(C)(C5CCC(O)(CC)C(C)O5)O4)O3)C(C)CC2C)O1 (centres unmarked) | HMLER | cell proliferation |  |  | IC50 CD24high/CD44low over IC50 CD24low/CD44high | 2.7 |
| N=C(N/N=C/c1ccc2ccc3cccc4ccc1c2c34)N/N=C/c1ccc2ccc3cccc4ccc1c2c34 | PANC-1 |  | crystal violet | 72 h | IC50 hTERT-HPNE over IC50 PANC-1 | 1.2 |
| CCC(C(=O)O)C1CCC(C)C(C(C)C(O)C(C)C(=O)C(CC)C2OC3(C=CC(NCc4cn(C56CC7CC(CC(C7)C5)C6)nn4)C4(CCC(C)(C5CCC(O)(CC)C(C)O5)O4)O3)C(C)CC2C)O1 (centres unmarked) | HMLER | cell proliferation |  |  | IC50 CD24high/CD44low over IC50 CD24low/CD44high | 15 |
| C#CCCCC(O)/C=C/C(=O)NC1(c2ccc(-c3nc4ccn5c(=O)[nH]nc5c4cc3-c3ccccc3)cc2)CCC1 (centres unmarked) | MDA-MB-468, KIFC1 or Grsf1 knockdown |  |  |  | EC50 cpd over EC50 MK-2206 | increased |

Excerpt of the above:
| SMILES | cell line | effect on | method | time | reference | selectivity ratio |
| --- | --- | --- | --- | --- | --- | --- |
| CCC(C(=O)O)C1CCC(C)C(C(C)C(O)C(C)C(=O)C(CC)C2OC3(C=CC(NCc4cn(CCOCCOCCOC)nn4)C4(CCC(C)(C5CCC(O)(CC)C(C)O5)O4)O3)C(C)CC2C)O1 (centres unmarked) | HMLER | cell proliferation |  |  | IC50 CD24high/CD44low over IC50 CD24low/CD44high | 2.3 |
| N=C(N/N=C/c1cncnc1)N/N=C/c1cncnc1 | PANC-1 |  | crystal violet | 72 h | IC50 hTERT-HPNE over IC50 PANC-1 | 3.5 |
